Experimental data from different studies.
Each line is one published result; not all experiments were run side by side. Numbers after ± are the reported error. Values after ≈ are worked out from the molar mass of the structure shown.
Chain of UniProt Q9H422 (whole entry, looked up): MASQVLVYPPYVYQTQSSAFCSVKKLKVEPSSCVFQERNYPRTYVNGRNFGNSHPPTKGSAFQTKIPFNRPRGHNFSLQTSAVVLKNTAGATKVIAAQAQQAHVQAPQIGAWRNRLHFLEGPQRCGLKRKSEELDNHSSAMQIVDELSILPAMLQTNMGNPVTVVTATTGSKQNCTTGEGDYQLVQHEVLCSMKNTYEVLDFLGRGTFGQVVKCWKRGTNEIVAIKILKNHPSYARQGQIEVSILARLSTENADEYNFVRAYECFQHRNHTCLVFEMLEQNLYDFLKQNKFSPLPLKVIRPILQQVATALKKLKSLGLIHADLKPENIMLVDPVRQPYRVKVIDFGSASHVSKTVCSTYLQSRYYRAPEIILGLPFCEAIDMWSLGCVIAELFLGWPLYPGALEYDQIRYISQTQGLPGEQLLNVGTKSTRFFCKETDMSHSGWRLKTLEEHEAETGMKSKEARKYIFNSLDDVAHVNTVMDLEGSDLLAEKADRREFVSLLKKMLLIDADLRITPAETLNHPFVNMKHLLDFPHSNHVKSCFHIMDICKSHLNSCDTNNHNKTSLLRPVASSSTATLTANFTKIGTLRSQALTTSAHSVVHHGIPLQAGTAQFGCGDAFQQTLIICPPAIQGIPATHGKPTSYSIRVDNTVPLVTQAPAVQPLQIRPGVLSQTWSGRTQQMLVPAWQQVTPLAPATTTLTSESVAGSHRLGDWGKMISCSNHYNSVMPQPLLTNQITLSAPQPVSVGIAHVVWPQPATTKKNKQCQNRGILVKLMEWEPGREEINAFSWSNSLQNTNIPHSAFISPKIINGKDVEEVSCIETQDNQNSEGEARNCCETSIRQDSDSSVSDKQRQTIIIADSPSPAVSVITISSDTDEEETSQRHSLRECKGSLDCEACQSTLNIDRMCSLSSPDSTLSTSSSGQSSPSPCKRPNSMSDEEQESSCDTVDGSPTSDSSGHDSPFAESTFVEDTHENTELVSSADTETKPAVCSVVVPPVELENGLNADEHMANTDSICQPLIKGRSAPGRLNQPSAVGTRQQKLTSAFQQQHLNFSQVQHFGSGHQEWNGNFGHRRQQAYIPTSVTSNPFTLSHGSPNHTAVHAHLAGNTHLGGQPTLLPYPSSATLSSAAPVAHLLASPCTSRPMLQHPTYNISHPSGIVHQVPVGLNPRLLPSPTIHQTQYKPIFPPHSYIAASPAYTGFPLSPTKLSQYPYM

SMILES	tested on	assay	test system	conditions	how to read	endpoint	result
C=CC(=O)N1[C@@H](c2ccc3c(c2)OCO3)c2[nH]c3ccccc3c2C[C@H]1C(=O)N1CCN(C)CC1	human cyclin E1 wild type-3xFLAG:CDK2	co-IP with TMT proteomics, item: HSPA9	–	concentration not given, P38646	relative to: wild type DMSO	relative co-enrichment	88%
Fc1ccc(Nc2nc(NC3CCCCC3)c3cc(Br)ccc3n2)cc1F	β2AR/β1AR ECL1/3 chimera	β-arrestin2 recruitment, antagonist, BRET	–	–	relative to: isoprenaline maximal response	maximal inhibition	-7.8%
CNS(=O)(=O)Nc1nccc(Cc2c(C)c3ccc(Oc4ncccc4F)cc3oc2=O)c1F	Kasumi 1	cell viability	–	7 days	–	IC50	54.8 nM
CC[C@H]1OC(=O)[C@H](C)[C@@H](OC(=O)Cc2c(F)cc([N+](=O)[O-])cc2F)[C@H](C)[C@@H](O[C@@H]2O[C@H](C)C[C@H](N(C)C)[C@H]2O)[C@](C)(OC)C[C@@H](C)C(=O)[C@H](C)[C@@H](O)[C@]1(C)O	Escherichia coli ribosome	in vitro transcription-translation, inhibitor	–	–	–	IC50	140 nM
O=S(=O)(NCc1ccncc1)c1ccc(C2CCCCC2)cc1	NONO (human)	probe binding, biotin probe pulldown, item: NONO	–	500 µM	relative to: DMSO	inhibition	~31%
C1=[N+]2CCC[N+]3=Cc4ccc5[n]4[Au-]23[n]2c1ccc2-c1nc2ccccc2nc1-5.F[P-](F)(F)(F)(F)F	human ACTN3 291-bp linear dsDNA	high-resolution melt	–	2.04 µM	–	melting temperature	84 °C
CN1CCCNC(=O)CC2(CCCCC2)CC(=O)NCCCN(C)CCCNc2cccc3c2C(=O)c2cccc(c2C3=O)NCCC1	telomeric G-quadruplex DNA	DNA binding, UV-Vis titration	–	–	relative to: Ka telomeric G1 over double-stranded DNA	selectivity ratio	243
C1=[N+]2CCCC[N+]3=Cc4ccc5[n]4[Au-]23[n]2c1ccc2-c1nc2ccccc2nc1-5.F[P-](F)(F)(F)(F)F	human ACTN3 291-bp linear dsDNA	high-resolution melt	–	83.2 nM	–	melting temperature	83 °C
C=CC(=O)Nc1cccc(Cn2ncc3cnc(Nc4cnn(CCOC)c4)nc32)c1	human ABL1(H396P)-phosphorylated	KINOMEscan	–	100 nM	relative to: control	binding	8.2%
CC[C@H]1OC(=O)[C@H](C)C(=O)[C@H](C)[C@@H](O[C@@H]2O[C@H](C)C[C@H](N(C)C)[C@H]2O)[C@](C)(OC)C[C@@H](C)C(=O)[C@H](C)[C@H]2N(CCCCn3cnc(-c4cccnc4)c3)C(=O)O[C@]12C	Escherichia coli ribosome	in vitro transcription-translation, inhibitor	–	–	–	IC50	400 nM
C=C(NC(=O)c1csc(-c2nc3c(cc2O)-c2nc(cs2)C(=O)NC(C(C)O)C(=O)NC(=C(C)OC)c2nc(cs2)C(=O)NC2c4nc(cs4)C(=O)NC(COC(=O)c4c5c6c(cccc6n4O)COC(=O)C(OC4CC(C)(O)C(N(C)C)C(C)O4)C2OC5)c2nc-3cs2)n1)C(N)=O (stereo not shown)	Staphylococcus epidermidis	–	methicillin-resistant, 10 isolates	serum 75%	–	MIC50	0.0625 µg/mL (≈ 0.0435 µM)
Cc1nn(-c2cccc(N)c2)c(=O)c2cnc(Nc3ccc(N4CCNCC4)cc3)nc12	Homeodomain-interacting protein kinase 3 (HIPK3, Homo sapiens, UniProt Q9H422)	enzyme activity, inhibitor	–	–	–	IC50	> 10000 nM
Nc1ncc(-c2cc(-c3cnn(CC(F)(F)F)c3)ncc2F)nc1C(=O)NC1CNCC(F)C1 (stereo not shown)	NEK5	KINOMEscan	–	1 µM	relative to: DMSO control	remaining binding	86%
c1ccc(-c2n[nH]cc2-c2ccnc3ccccc23)nc1	YPK1 (Candida albicans)	kinase binding, MIB/MS competition	Candida albicans lysate	10 µM	relative to: DMSO	log2 fold change	-0.14
COC1CN([C@H]2CC[C@H]([C@@]3(C)Oc4c(Cl)cc(C(=O)NCc5c(SC)cc(C)[nH]c5=O)c(C)c4O3)CC2)C1	–	RNA-seq, item: DUSP8 mouse homolog	mouse, HT-1376 xenograft, whole blood	dose not given	relative to: vehicle	log2 fold change	1.88
CN(C)CCOc1cc(NC(=O)c2cccc(C(=O)Nc3cc(OCCN(C)C)c4ccccc4n3)n2)nc2ccccc12	c-kit1 G-quadruplex DNA	FRET melting	–	1 µM, pH 7.4, with: 60 mM potassium	–	ΔTm	19.2 ± 0.8 K
CCCC[C@H](NC(C)=O)C(=O)N[C@@H](CO)C(=O)N[C@H](C(=O)N1CCC[C@H]1C(=O)N[C@]1(C)CCCCCCC=CCCC[C@@](C)(C(=O)N[C@@H](Cc2ccccc2)C(=O)N[C@@H](CCCCN)C(=O)N[C@@H](CCCNC(=N)N)C(=O)N[C@@H](CC(C)C)C(=O)N[C@@H](CCC(N)=O)C(N)=O)NC(=O)[C@H](CCCNC(=N)N)NC(=O)[C@H](CCCC)NC(=O)[C@H](CC(C)C)NC(=O)[C@H](CCCNC(=N)N)NC(=O)[C@H](CCCNC(=N)N)NC(=O)[C@H](CCCNC(=N)N)NC1=O)[C@@H](C)O	proteinase K	LC-MS	–	25 µM, 123.0 min, pH 7.4	–	remaining peptide	75.4%
CSCc1cn(-c2cccc(C(=O)N3CCC(c4nc(-c5ccccc5)n[nH]4)CC3)c2)nn1	FSP1 L323A	resorufin formation, inhibitor	–	with: NADH, resazurin	–	IC50	no inhibition
Cc1ncsc1-c1ccc(C(C)NC(=O)C2CC(O)CN2C(=O)C(NC(=O)CCCCCCCCCCN2CCCC(Nc3ncc(Cl)c(Nc4ccccc4S(=O)(=O)C(C)C)n3)C2)C(C)(C)C)cc1 (stereo not shown)	22Rv1	RNA-seq, item: TFAP2C mRNA	–	concentration not given	relative to: DMSO	log2 fold change	-1.59

Excerpt of the above:
SMILES	tested on	assay	test system	conditions	how to read	endpoint	result
C1=[N+]2CCCC[N+]3=Cc4ccc5[n]4[Au-]23[n]2c1ccc2-c1nc2ccccc2nc1-5.F[P-](F)(F)(F)(F)F	human ACTN3 291-bp linear dsDNA	high-resolution melt	–	83.2 nM	–	melting temperature	83 °C
